Measured values of several laboratories.
Each line is one published result; not all experiments were run side by side. Values joined by “and” are separate records of one study, mostly repeats; a detail may differ.
Target: Tyrosine-protein kinase Blk (BLK, Homo sapiens, UniProt P51451)
Sequence of UniProt P51451 (whole entry, unmodified, looked up): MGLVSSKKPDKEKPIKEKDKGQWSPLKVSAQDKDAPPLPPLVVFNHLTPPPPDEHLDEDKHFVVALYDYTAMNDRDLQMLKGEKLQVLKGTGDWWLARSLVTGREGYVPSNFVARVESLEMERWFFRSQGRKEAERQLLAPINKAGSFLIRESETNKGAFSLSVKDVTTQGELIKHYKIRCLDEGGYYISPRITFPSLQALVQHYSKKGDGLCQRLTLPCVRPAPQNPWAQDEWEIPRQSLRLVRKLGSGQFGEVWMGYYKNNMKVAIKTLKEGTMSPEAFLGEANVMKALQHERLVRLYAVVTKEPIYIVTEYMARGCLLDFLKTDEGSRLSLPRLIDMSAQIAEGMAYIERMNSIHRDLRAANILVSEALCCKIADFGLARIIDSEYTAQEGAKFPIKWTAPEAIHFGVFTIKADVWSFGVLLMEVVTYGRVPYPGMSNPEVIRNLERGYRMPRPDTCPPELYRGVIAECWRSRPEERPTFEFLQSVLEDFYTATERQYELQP

Compound	test	setting	how to read	measurement	result
C=CC(=O)Nc1cccc(-c2cnc3[nH]cc(C(=O)NC(C)(C)C)c3n2)c1	kinase activity	0.1 µM		inhibition	30% and 29%
CNC(=O)C[C@H](Cc1ccc(C#N)cc1)NC(=O)c1cc(-c2ccc(CN[C@H](C)c3ccc(C)cc3)o2)ccc1Cl	enzyme activity, inhibitor	1 µM		activity vs control	91%
NC(=O)[C@@H](O)C[C@H]1CCc2sc3ncnc(O[C@H]4CC[C@H](N5CCOCC5)CC4)c3c21	enzyme activity, inhibitor	10 µM		inhibition	44%
COCC12C(=O)NC3C4(C(OC)CC1O)C1CC5(O)C(OC)C(O)C(OC(C)=O)(C1C5OC(=O)c1ccccc1)C3(O)C(OC)C24 (stereo not drawn)	kinase activity, inhibitor, ProQinase kinase profiling	25 µM	baseline: control	remaining activity	98% and 92%
COc1ccc(NC(=O)Nc2ccc3c(c2)C(=O)N(C(C)CO)CC(C)C(CN(C)Cc2ccc4c(c2)OCO4)O3)cc1 (stereo not drawn)	kinase activity, KinaseProfiler	0.03 µM, species human	baseline: control	remaining activity	107%
COc1cc(Nc2nc(C)cc(-c3cnn4nc(OC)ccc34)n2)cc(C(F)(F)F)c1	inhibitor	1 µM	baseline: control	remaining activity	100%
CCN1CCN(Cc2ccc(C(=O)Nc3ccc(C)c(NCc4cnc5[nH]ccc5c4OC)c3)cc2C(F)(F)F)CC1	binding, competition with immobilised ligand	1 µM		remaining binding	0%
Cc1cc(NC(=O)[C@H](O)c2cc(F)cc(F)c2)ccc1-c1cnc(N)c(C(=O)NC(C)C)c1	binding, competition with immobilised ligand	10 µM		remaining binding	100%
CCn1cc(C(=O)O)c(=O)c2c(N)c(F)c(NC3CCCCC3)cc21	kinase activity	0.1 µM, with: ATP at Km		inhibition	6.9%
CC(C)=CC1OC(C)(C)C2C=C3C(=O)C(Cl)=CC(O)C3C3C(O)C4OC4C(=O)C132 (stereo not drawn)	cell-free assay, competition with immobilised ligand	10 µM		remaining binding	93%
Cc1ccc(-c2c(/C=C(\C#N)C(=O)NC(C)C)n(CCCO)c3ncnc(N)c23)cc1	cell-free assay, competition with immobilised ligand	1 µM		remaining binding	64%
Nc1ncc(-c2cc(-c3cnn(CC(F)(F)F)c3)ncc2F)nc1C(=O)NC1CNCC(F)C1 (stereo not drawn)	enzyme activity	1 µM	baseline: DMSO control	remaining activity	85.3%
Nc1ncc2c(n1)-c1c([nH]c3ccc(C4=CCOCC4)cc13)CCC2	binding, competition with immobilised ligand	1 µM		remaining binding	100%
Cc1cccc(O[C@H]2CCC[C@@H](C(C)CNCc3ccncc3)C2)c1 (relative stereo)	enzyme activity, inhibitor	10 µM		inhibition	-22%
CN1CC[C@@H](COc2cnc(C#N)cc2-c2ccn3nc(NC(=O)C4CC4)cc3c2)C1	enzyme activity, inhibitor	1 µM		inhibition	33%

A few entries again:
Compound	test	setting	how to read	measurement	result
CCN1CCN(Cc2ccc(C(=O)Nc3ccc(C)c(NCc4cnc5[nH]ccc5c4OC)c3)cc2C(F)(F)F)CC1	binding, competition with immobilised ligand	1 µM		remaining binding	0%
